Results pooled from the literature.
DRD3: D(3) dopamine receptor (DRD3, Homo sapiens, UniProt P35462)
Chain of UniProt P35462 (whole entry, looked up): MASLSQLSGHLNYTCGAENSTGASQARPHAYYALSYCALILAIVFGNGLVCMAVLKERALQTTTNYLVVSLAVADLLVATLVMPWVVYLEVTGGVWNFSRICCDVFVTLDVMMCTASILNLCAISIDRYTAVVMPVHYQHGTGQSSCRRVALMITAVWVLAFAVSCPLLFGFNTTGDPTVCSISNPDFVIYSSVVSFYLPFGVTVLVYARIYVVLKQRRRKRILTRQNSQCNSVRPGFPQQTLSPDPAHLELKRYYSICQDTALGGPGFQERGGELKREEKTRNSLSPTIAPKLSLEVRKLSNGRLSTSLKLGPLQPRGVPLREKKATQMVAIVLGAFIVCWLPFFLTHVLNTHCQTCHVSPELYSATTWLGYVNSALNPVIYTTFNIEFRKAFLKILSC
Chain of UniProt Q8TF76 (whole entry, looked up): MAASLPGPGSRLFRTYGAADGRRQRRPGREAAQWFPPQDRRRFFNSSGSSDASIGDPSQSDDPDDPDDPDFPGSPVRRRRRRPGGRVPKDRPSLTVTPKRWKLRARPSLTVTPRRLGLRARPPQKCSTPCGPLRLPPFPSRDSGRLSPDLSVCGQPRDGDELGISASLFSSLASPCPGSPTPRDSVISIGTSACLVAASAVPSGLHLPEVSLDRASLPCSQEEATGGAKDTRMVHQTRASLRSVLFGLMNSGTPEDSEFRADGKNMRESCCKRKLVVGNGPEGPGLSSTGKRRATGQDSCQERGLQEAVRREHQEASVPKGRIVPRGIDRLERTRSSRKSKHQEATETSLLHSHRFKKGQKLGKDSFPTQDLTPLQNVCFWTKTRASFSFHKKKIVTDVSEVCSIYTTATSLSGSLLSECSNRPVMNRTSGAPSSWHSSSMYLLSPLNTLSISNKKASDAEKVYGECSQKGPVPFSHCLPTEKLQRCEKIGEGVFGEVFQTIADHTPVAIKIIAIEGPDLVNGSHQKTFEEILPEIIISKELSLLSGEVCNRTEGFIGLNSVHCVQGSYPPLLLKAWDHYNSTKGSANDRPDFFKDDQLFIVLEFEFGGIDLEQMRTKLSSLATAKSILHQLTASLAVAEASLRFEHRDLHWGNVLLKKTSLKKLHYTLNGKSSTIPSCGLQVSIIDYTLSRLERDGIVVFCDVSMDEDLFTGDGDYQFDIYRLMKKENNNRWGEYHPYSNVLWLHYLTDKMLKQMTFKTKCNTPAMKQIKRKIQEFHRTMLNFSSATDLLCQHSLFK
Chain of UniProt P49336 (whole entry, looked up): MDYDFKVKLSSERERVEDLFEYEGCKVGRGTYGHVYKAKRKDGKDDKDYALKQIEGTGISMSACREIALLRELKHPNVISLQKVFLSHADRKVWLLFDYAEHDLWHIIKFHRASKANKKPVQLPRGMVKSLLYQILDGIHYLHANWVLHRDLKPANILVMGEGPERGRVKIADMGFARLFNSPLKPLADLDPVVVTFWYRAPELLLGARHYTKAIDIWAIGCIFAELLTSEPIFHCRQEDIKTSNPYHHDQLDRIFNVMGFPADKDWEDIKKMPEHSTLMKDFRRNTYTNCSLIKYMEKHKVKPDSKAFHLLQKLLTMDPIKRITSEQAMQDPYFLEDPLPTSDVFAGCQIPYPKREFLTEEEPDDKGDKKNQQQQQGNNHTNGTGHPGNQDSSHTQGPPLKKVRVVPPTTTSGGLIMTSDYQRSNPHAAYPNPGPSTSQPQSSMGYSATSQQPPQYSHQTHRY
Chain of UniProt Q8NEB9 (whole entry, looked up): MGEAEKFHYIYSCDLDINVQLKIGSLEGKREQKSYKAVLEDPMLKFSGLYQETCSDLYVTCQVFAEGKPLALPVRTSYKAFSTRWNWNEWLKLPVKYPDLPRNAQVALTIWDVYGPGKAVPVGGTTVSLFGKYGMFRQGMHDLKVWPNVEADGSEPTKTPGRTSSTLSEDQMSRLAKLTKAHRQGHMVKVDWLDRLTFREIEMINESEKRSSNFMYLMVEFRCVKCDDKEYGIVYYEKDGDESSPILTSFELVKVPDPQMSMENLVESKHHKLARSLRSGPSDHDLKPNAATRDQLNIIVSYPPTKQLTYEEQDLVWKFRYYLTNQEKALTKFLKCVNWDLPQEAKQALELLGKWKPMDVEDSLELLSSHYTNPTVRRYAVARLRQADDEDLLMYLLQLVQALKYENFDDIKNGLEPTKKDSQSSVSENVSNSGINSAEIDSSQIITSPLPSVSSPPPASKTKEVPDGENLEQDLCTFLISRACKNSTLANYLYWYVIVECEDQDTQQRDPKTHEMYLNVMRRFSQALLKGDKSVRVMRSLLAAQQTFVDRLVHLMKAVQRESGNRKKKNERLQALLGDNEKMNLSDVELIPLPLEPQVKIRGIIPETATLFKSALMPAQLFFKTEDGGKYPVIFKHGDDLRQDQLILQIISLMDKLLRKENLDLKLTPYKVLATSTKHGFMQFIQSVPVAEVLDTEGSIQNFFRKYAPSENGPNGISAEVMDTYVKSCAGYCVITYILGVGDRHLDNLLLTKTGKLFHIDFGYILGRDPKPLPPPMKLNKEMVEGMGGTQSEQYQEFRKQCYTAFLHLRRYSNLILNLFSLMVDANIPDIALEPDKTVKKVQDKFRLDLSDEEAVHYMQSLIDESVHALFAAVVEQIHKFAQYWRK
Chain of UniProt P35968 (whole entry, looked up): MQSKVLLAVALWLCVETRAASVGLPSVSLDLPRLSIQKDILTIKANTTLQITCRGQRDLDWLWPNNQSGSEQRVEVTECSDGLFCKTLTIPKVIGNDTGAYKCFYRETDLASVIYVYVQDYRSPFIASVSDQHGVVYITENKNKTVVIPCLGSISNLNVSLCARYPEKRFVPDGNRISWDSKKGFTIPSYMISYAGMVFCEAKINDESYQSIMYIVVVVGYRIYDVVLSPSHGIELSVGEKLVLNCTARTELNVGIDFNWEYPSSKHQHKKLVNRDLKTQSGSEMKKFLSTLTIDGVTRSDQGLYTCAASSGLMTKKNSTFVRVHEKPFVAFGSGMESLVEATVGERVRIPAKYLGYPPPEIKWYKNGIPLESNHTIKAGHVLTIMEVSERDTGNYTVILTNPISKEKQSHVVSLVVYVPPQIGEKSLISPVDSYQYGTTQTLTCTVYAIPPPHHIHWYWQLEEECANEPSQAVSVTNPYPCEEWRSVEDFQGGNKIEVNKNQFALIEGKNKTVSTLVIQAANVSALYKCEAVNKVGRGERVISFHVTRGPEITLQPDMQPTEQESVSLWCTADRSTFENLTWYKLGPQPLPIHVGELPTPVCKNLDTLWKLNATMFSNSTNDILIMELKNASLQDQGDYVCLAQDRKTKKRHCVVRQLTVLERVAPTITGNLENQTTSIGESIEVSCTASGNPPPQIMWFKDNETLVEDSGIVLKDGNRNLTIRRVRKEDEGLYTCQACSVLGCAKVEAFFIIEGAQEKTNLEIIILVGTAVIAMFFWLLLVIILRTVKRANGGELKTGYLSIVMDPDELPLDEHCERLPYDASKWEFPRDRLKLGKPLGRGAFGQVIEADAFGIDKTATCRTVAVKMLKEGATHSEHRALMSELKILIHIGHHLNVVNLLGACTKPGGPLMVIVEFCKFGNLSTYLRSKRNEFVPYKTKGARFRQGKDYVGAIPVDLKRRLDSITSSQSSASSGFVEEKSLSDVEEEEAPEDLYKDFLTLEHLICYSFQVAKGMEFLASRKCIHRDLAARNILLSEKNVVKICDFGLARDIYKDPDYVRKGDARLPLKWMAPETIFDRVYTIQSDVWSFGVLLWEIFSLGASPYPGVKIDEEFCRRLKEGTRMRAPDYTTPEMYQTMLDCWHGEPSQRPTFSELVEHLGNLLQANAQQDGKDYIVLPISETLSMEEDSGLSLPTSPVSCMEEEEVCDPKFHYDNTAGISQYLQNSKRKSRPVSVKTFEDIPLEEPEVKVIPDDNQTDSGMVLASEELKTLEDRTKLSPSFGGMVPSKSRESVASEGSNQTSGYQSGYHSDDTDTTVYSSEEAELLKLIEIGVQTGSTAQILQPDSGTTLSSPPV
Chain of UniProt P04629 (whole entry, looked up): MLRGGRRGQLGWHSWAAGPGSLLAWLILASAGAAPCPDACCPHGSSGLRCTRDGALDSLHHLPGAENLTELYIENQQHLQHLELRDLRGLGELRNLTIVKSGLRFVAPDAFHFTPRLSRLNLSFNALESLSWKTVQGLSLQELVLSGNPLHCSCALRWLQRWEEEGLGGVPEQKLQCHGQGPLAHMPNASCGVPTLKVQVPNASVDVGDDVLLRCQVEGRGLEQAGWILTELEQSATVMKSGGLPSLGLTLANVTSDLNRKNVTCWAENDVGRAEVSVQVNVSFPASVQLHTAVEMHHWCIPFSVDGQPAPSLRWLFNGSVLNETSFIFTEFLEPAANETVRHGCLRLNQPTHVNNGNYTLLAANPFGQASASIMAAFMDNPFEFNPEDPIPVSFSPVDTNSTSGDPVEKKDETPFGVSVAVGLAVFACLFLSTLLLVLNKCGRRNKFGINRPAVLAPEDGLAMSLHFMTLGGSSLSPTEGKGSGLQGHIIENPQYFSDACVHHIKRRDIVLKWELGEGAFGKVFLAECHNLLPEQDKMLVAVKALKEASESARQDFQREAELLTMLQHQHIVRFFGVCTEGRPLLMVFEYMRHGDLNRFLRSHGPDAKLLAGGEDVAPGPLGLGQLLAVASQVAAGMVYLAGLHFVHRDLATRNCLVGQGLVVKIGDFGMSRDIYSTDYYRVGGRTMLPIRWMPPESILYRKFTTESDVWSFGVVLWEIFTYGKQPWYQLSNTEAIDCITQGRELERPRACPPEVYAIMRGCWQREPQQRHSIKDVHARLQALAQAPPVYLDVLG
Chain of UniProt Q9BY41 (whole entry, looked up): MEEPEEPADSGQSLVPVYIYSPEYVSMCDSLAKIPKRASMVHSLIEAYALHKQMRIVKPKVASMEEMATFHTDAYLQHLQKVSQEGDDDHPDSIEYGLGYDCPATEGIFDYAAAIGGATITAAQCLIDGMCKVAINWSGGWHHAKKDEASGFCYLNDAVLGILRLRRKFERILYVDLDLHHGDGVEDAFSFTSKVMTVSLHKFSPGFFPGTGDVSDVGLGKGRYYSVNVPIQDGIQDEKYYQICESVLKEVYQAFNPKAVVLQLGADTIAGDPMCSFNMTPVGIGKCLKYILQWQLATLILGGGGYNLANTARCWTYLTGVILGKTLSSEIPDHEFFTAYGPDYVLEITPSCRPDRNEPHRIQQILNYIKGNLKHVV

`C1=C/COCc2cc(ccc2OCCN2CCCC2)Nc2nccc(n2)-c2cccc(c2)COC/1` gave a remaining binding of 77% (MAST1 (Homo sapiens, UniProt Q9Y2H9); binding; 0.1 µM).
`O=C(NO)c1cccc(OS(=O)(=O)Oc2cccc(-c3ccccc3)c2)c1` has an IC50 of 0.665 µM (HDAC6 (Homo sapiens, UniProt Q9UBN7); enzyme activity, inhibitor, fluorescence).
For `C=CC(=O)N1CCC(COCC(=O)N2CCN(c3nc(-c4cnc(N)nc4C(F)F)nc(N4CCOC[C@@H]4C)n3)CC2)CC1`, the remaining binding was 94% (KDR (Homo sapiens, UniProt P35968); binding, competition with immobilised ligand; 1 µM).
The remaining activity of `COc1cc(-c2cncc3c2CN(C)Cc2cc(N4CCNCC4)ccc2-3)cc(OC)c1OC` is reported as 92% (KIT (Homo sapiens, UniProt P10721, V560G); enzyme activity, inhibitor; 1 µM).
With `C[C@]1(O)CCCN(c2nc(Nc3ccc(S(=O)(=O)N[C@H]4CC[C@H](CN5CCN(c6ccc(C7CCC(=O)NC7=O)cc6F)CC5)CC4)cc3Cl)ncc2C(F)(F)F)C1` (stereo partly drawn) the remaining binding was 100% (STK16 (Homo sapiens, UniProt O75716); binding, competition with immobilised ligand; 1 µM).
With `Cc1[nH]c(C)c(S(=O)(=O)Nc2ccc(C(F)(F)F)c(Cl)c2)c1C(=O)N1CCC(O)C1` (stereo not drawn) the IC50 was 14.8 µM (DRD3; β-arrestin recruitment, antagonist).
With `COc1ccc2oc(-c3ccc4nc(N)oc4c3)c/c(=N\c3ccccc3NC(=O)CCN)c2c1` the remaining binding was 102% (HASPIN (Homo sapiens, UniProt Q8TF76); binding; 1 µM).
The remaining binding of `N[C@H]1CCN(c2nccc(-c3cnn4ncccc34)n2)C1` is reported as 100% (MAP3K13 (Homo sapiens, UniProt O43283); binding; 1 µM).
With `C[C@@H](c1ccc(-n2cnc3c(N)ncnc32)cc1)N1CCc2nn(C)c(Cc3ccccc3)c2C1=O` the remaining binding was 6.4% (NTRK1 (Homo sapiens, UniProt P04629); binding, competition with immobilised ligand; 0.1 µM).
For `F[C@@H]1CCN(c2nccc(-c3cnn4ncccc34)n2)C1`, the remaining binding was 100% (PIK3C3 (Homo sapiens, UniProt Q8NEB9); binding; 1 µM).
For `Cc1cc([C@@H](C)Nc2ccccc2C(=O)O)c2nc(N3CCC(F)(F)CC3)c(C#N)c(=O)n2c1`, the remaining binding was 100% (MAP3K9 (Homo sapiens, UniProt P80192); binding, competition with immobilised ligand; 1 µM).
For `CNS(=O)(=O)c1ccc(Nc2ncc(C(F)(F)F)c(N3CCC[C@](C)(O)C3)n2)c(C)c1`, the remaining binding was 100% (CDK8 (Homo sapiens, UniProt P49336); binding, competition with immobilised ligand; 1 µM).
For `Cc1cc(OS(=O)(=O)Oc2ccc3ccccc3c2)cc(C(=O)NO)c1`, the Ki was 3.29 µM (HDAC8 (Homo sapiens, UniProt Q9BY41); enzyme activity, inhibitor, fluorescence).
`FC(F)(F)Oc1cccc(-c2cnc3ccc(-c4ccncc4)nn23)c1` has a remaining binding of 54% (TESK1 (Homo sapiens, UniProt Q15569); binding, competition with immobilised ligand; 5 µM).
`CCCCC(=O)Nc1ccc(-c2ccc3ncn(CCC)c(=O)c3c2)cn1` gave a remaining binding of 100% (CDK13 (Homo sapiens, UniProt Q14004); binding, competition with immobilised ligand; 0.5 µM).
The IC50 of `Cc1[nH]c(C)c(S(=O)(=O)Nc2ccc(Cl)c(C(F)(F)F)c2)c1C(=O)N1CCCC1` is reported as 4.1 µM (DRD3; G protein activation, antagonist, BRET).
With `CNc1ncc2c(/C=C/C(=O)N3CCC(OC)CC3)nn(Cc3cccc(C(F)(F)F)c3)c2n1` the remaining activity was 100% (GSK3B (Homo sapiens, UniProt P49841); enzyme activity, inhibitor, radiometric; 1 µM).
For `Cc1cc(NC(=O)c2cccc(NC(=O)/C=C/CN(C)C)c2)ccc1Nc1nccc(-c2cccnc2)n1`, the remaining binding was 100% (TNK2 (Homo sapiens, UniProt Q07912); binding, competition with immobilised ligand; 1 µM).

Excerpt of the above:
For `C=CC(=O)N1CCC(COCC(=O)N2CCN(c3nc(-c4cnc(N)nc4C(F)F)nc(N4CCOC[C@@H]4C)n3)CC2)CC1`, the remaining binding was 94% (KDR (Homo sapiens, UniProt P35968); binding, competition with immobilised ligand; 1 µM).
The remaining activity of `COc1cc(-c2cncc3c2CN(C)Cc2cc(N4CCNCC4)ccc2-3)cc(OC)c1OC` is reported as 92% (KIT (Homo sapiens, UniProt P10721, V560G); enzyme activity, inhibitor; 1 µM).
With `C[C@]1(O)CCCN(c2nc(Nc3ccc(S(=O)(=O)N[C@H]4CC[C@H](CN5CCN(c6ccc(C7CCC(=O)NC7=O)cc6F)CC5)CC4)cc3Cl)ncc2C(F)(F)F)C1` (stereo partly drawn) the remaining binding was 100% (STK16 (Homo sapiens, UniProt O75716); binding, competition with immobilised ligand; 1 µM).
